# Assay results pooled from the literature.
# Organism: Pseudomonas aeruginosa
Structure (SMILES),method,strain,matrix,time,temperature,notes,MIC
CC(=O)N[C@H](Cc1cccc(F)c1)C(=O)N[C@@H](CCN)C(=O)N[C@H](C(=O)N[C@@H](CCN)C(=O)N[C@H]1CCNC(=O)[C@H]([C@@H](C)O)NC(=O)[C@H](CCN)NC(=O)[C@H](CCN)NC(=O)[C@H](CC(C)C)NC(=O)[C@@H](Cc2ccccc2)NC(=O)[C@H](CCN)NC1=O)[C@@H](C)O,broth microdilution,colistin-resistant isolates,,,,,> 64 µg/mL
CC[C@H](C)[C@@H]1NC(=O)[C@@H]2CCCN2C(=O)[C@H](C)NC(=O)[C@H](CC(C)C)NC(=O)[C@@H]2CCCN2C(=O)[C@H](C)NC(=O)[C@@H]2CSSC[C@H](NC(=O)[C@H](C)NC(=O)[C@H](C)NC(=O)[C@H](Cc3ccc(O)cc3)NC(=O)[C@@H]3CCCN3C(=O)CNC(=O)[C@H](Cc3c[nH]c4ccccc34)NC1=O)C(=O)N[C@@H](CC(C)C)C(=O)N[C@@H](CO)C(=O)N[C@@H](C)C(=O)N[C@H]1CSSC[C@H](NC(=O)[C@H](C(C)C)NC(=O)[C@@H]3CCCN3C(=O)CNC(=O)CNC(=O)CNC(=O)[C@H](C)NC(=O)[C@H](C)NC(=O)[C@H](CC(C)C)NC1=O)C(=O)N[C@@H](CC(C)C)C(=O)N[C@@H](C)C(=O)N[C@@H](C(C)C)C(=O)N2,,ATCC 27853,,,,,> 128 µg/mL
CC[C@H](C)[C@H](NC(=O)[C@H](CCCNC(=N)N)NC(=O)[C@@H](NC(=O)[C@@H](NC(=O)[C@H](CCCNC(=N)N)NC(=O)[C@H](CCCCN)NC(=O)[C@H](Cc1ccccc1)NC(=O)[C@H](CCCNC(=N)N)NC(=O)[C@H](CCCCN)NC(=O)[C@@H](NC(=O)[C@@H](N)CCCCN)[C@@H](C)CC)[C@@H](C)CC)C(C)C)C(=O)N[C@@H](CCCCN)C(=O)N[C@@H](Cc1ccccc1)C(=O)N[C@@H](CC(C)C)C(=O)N[C@@H](CCCNC(=N)N)C(=O)N[C@H](C(=O)N[C@H](C(=O)N[C@@H](CCCNC(=N)N)C(=O)N[C@@H](CCCNC(=N)N)C(N)=O)C(C)C)C(C)C,broth microdilution,01,,,,,7.5 µg/mL
N=C(N)NCCC[C@@H]1NC(=O)[C@@H](CCCNC(=N)N)NC(=O)[C@H](CCCNC(=N)N)NC(=O)[C@@H](C(c2ccccc2)c2ccccc2)NC(=O)[C@@H](C(c2ccccc2)c2ccccc2)NC(=O)[C@@H](C(c2ccccc2)c2ccccc2)NC(=O)[C@@H](CCCNC(=N)N)NC1=O,,"1188712, multidrug-resistant",,,,,32 µg/mL
CC(C)[C@H](NC(=O)CNC(=O)CNC(=O)[C@H](Cc1ccc(O)cc1)NC(=O)[C@H](CS)NC(=O)[C@@H](NC(=O)[C@H](Cc1c[nH]c2ccccc12)NC(=O)[C@H](Cc1ccccc1)NC(=O)[C@H](CS)NC(=O)[C@H](Cc1c[nH]c2ccccc12)NC(=O)[C@@H](N)CCCNC(=N)N)C(C)C)C(=O)N[C@@H](CS)C(=O)N[C@@H](Cc1ccc(O)cc1)C(=O)N[C@@H](CCCNC(=N)N)C(=O)N[C@@H](CCCNC(=N)N)C(=O)N[C@@H](CS)C(=O)N[C@@H](CCCNC(=N)N)C(=O)O,broth microdilution,ATCC 27853,Mueller-Hinton broth,16 to 20 h,37 °C,,4.39 µg/mL
CCCCCCCC(=O)N[C@@H](CCN)C(=O)N[C@H](C(=O)N[C@@H](CCN)C(=O)N[C@H]1CCNC(=O)[C@H]([C@@H](C)O)NC(=O)[C@H](CCN)NC(=O)[C@H](CCN)NC(=O)[C@H](CCC(C)C)NC(=O)[C@@H](Cc2ccccc2)NC(=O)[C@H](CCN)NC1=O)[C@@H](C)O,broth microdilution,"PAO1, colistin-susceptible",,,,,< 0.125 µg/mL
C#CCOc1ccc(CN[C@@]2(C)C[C@H](O[C@H]3[C@H](Oc4c5cc6cc4Oc4ccc(cc4Cl)[C@@H](O)[C@@H](NC(=O)[C@@H](CC(C)C)NC)C(=O)N[C@@H](CC(N)=O)C(=O)N[C@H]6C(=O)N[C@H]4C(=O)N[C@H](C(=O)N[C@H](C(=O)O)c6cc(O)cc(O)c6-c6cc4ccc6O)[C@H](O)c4ccc(c(Cl)c4)O5)O[C@H](CO)[C@@H](O)[C@@H]3O)O[C@@H](C)[C@H]2O)cc1OC,broth microdilution,ATCC 27853,cation-adjusted Mueller-Hinton broth,18 to 20 h,37 °C,0.002% polysorbate 80,> 128 µg/mL
CC(C)C[C@H](NC(=O)[C@H](CCCCN)NC(=O)C1CCCC=CCCC(NC(=O)[C@H](CCCCN)NC(=O)[C@@H](N)CC(C)C)C(=O)N[C@@H](CCCCN)C(=O)N[C@@H](CC(C)C)C(=O)N[C@@H](CCCCN)C(=O)N2CCC[C@@H]2C(=O)NCC(=O)N[C@@H](CCCCN)C(=O)N[C@@H](CC(C)C)C(=O)N[C@@H](CCCCN)C(=O)N1)C(N)=O (stereo partly shown),broth microdilution,ATCC 9027,Mueller-Hinton broth,18 h,37 °C,,8 µM
CN[C@H](CC(C)C)C(=O)N[C@H]1C(=O)N[C@@H](CC(N)=O)C(=O)N[C@H]2C(=O)N[C@H]3C(=O)N[C@H](C(=O)N[C@H](C(=O)NCc4cn(CC(=O)N[C@H](C(=O)N[C@@H](CCN)C(=O)N[C@H]5CCNC(=O)[C@H]([C@@H](C)O)NC(=O)[C@H](CCN)NC(=O)[C@H](CCN)NC(=O)[C@H](CC(C)C)NC(=O)[C@@H](CC(C)C)NC(=O)[C@H](CCN)NC5=O)[C@@H](C)O)nn4)c4cc(O)cc(O)c4-c4cc3ccc4O)[C@H](O)c3ccc(c(Cl)c3)Oc3cc2cc(c3O[C@@H]2O[C@H](CO)[C@@H](O)[C@H](O)[C@H]2O[C@H]2C[C@](C)(N)[C@H](O)[C@H](C)O2)Oc2ccc(cc2Cl)[C@H]1O,broth microdilution,ATCC 27853,cation-adjusted Mueller-Hinton broth,,,,6 µM
CC(C)C[C@H](NC(=O)[C@H](CC(C)C)NC(=O)[C@H](CCCCN)NC(=O)[C@H](Cc1ccccc1)NC(=O)[C@@H](NC(=O)[C@H](CCCNC(=N)N)NC(=O)[C@@H](N)CCCCN)C(C)C)C(=O)N[C@@H](CCCCN)C(=O)N[C@@H](CCCNC(=N)N)C(=O)N[C@@H](Cc1ccc(O)cc1)C(=O)N[C@@H](Cc1c[nH]c2ccccc12)C(=O)N[C@@H](CCCNC(=N)N)C(=O)N[C@@H](CCC(N)=O)C(=O)N[C@@H](CC(C)C)C(=O)N[C@@H](CCCCN)C(=O)N[C@@H](CCCCN)C(=O)N1CCC[C@H]1C(=O)N[C@H](C(=O)N[C@@H](CCCNC(=N)N)C(=O)NCCOCCOCC(=O)O)C(C)C,,"ATCC 10145, GFP-expressing",,28 h,,,3.2 µM
C#CCOc1ccc(CN[C@@]2(C)C[C@H](O[C@H]3[C@H](Oc4c5cc6cc4Oc4ccc(cc4Cl)[C@@H](O)[C@@H](NC(=O)[C@@H](CC(C)C)NC)C(=O)N[C@@H](CC(N)=O)C(=O)N[C@H]6C(=O)N[C@H]4C(=O)N[C@H](C(=O)N[C@H](C(=O)N[C@@H](CCCNC(=N)N)C(N)=O)c6cc(O)cc(O)c6-c6cc4ccc6O)[C@H](O)c4ccc(c(Cl)c4)O5)O[C@H](CO)[C@@H](O)[C@@H]3O)O[C@@H](C)[C@H]2O)cc1OC,broth microdilution,ATCC 27736,cation-adjusted Mueller-Hinton broth,,,,72 µM
CCCCCCCC(=O)N[C@@H](CCN)C(=O)N[C@H](C(=O)N[C@@H](CCN)C(=O)N[C@H]1CCNC(=O)[C@H]([C@@H](C)O)NC(=O)[C@H](CCN)NC(=O)[C@H](CCN)NC(=O)[C@H](CCCc2ccccc2)NC(=O)[C@@H](CC(C)C)NC(=O)[C@H](CCN)NC1=O)[C@@H](C)O,broth microdilution,colistin-resistant isolates,,,,,0.5 to 1 µg/mL
CC[C@H](C)[C@H](NC(=O)[C@@H](CCCNC(=N)N)NC(=O)[C@H](CCCNC(=N)N)NC(=O)[C@@H]1CCCN1C(=O)[C@@H]1CCCN1C(=O)[C@H](CCCNC(=N)N)NC(=O)[C@@H]1CCCN1C(=O)[C@H](CCCNC(=N)N)NC(=O)[C@@H]1CCCN1C(=O)[C@H](Cc1ccccc1)NC(=O)[C@H](Cc1ccc(O)cc1)NC(=O)[C@@H]1CCCN1C(=O)[C@@H]1CCCN1C(=O)[C@H](CCCCN)NC(=O)[C@H](CC(=O)O)NC(=O)[C@@H](N)C(C)C)C(=O)N[C@@H](Cc1ccc(O)cc1)C(=O)N[C@@H](CC(N)=O)C(=O)N[C@H](CCCNC(=N)N)C(N)=O,broth microdilution,DSM 1117,,18 h,37 °C,25% MHB2,> 128 µg/mL
CN[C@H](CC(C)C)C(=O)N[C@H]1C(=O)N[C@@H](CC(N)=O)C(=O)N[C@H]2C(=O)N[C@H]3C(=O)N[C@H](C(=O)N[C@H](C(=O)O)c4cc(O)cc(O)c4-c4cc3ccc4O)[C@H](O)c3ccc(c(Cl)c3)Oc3cc2cc(c3O[C@@H]2O[C@H](CO)[C@@H](O)[C@H](O)[C@H]2O[C@H]2C[C@](C)(NCc3ccc(OCc4cn(CCCCC(=O)N[C@H](C(=O)N[C@@H](CCN)C(=O)N[C@H]5CCNC(=O)[C@H]([C@@H](C)O)NC(=O)[C@H](CCN)NC(=O)[C@H](CCN)NC(=O)[C@H](CC(C)C)NC(=O)[C@@H](CC(C)C)NC(=O)[C@H](CCN)NC5=O)[C@@H](C)O)nn4)c(OC)c3)[C@H](O)[C@H](C)O2)Oc2ccc(cc2Cl)[C@H]1O,broth microdilution,ATCC 13883,cation-adjusted Mueller-Hinton broth,,,,3 µM
CC[C@H](C)[C@H](NC(=O)[C@@H](CCCNC(=N)N)NC(=O)[C@H](CCCNC(=N)N)NC(=O)[C@H](Cc1ccccc1)NC(=O)[C@H](Cc1c[nH]c2ccccc12)NC(=O)[C@H](CCCNC(=N)N)NC(=O)[C@@H]1CCCN1C(=O)[C@H](CCCNC(=N)N)NC(=O)[C@@H]1CCCN1C(=O)[C@H](CC(C)C)NC(=O)[C@H](Cc1ccc(O)cc1)NC(=O)[C@@H]1CCCN1C(=O)[C@@H]1CCCN1C(=O)[C@H](CCCCN)NC(=O)[C@H](CC(=O)O)NC(=O)[C@@H](N)C(C)C)C(=O)N[C@@H](Cc1ccc(O)cc1)C(=O)N[C@@H](CC(N)=O)C(=O)N[C@H](CCCNC(=N)N)C(N)=O,broth microdilution,DSM 1117,,18 h,37 °C,25% MHB2,128 µg/mL
CN[C@H](CC(C)C)C(=O)N[C@H]1C(=O)N[C@@H](CC(N)=O)C(=O)N[C@H]2C(=O)N[C@H]3C(=O)N[C@H](C(=O)N[C@H](C(=O)O)c4cc(O)cc(O)c4-c4cc3ccc4O)[C@H](O)c3ccc(c(Cl)c3)Oc3cc2cc(c3O[C@@H]2O[C@H](CO)[C@@H](O)[C@H](O)[C@H]2O[C@H]2C[C@](C)(NCc3ccc(OCc4cn(CC(=O)N[C@H](C(=O)N[C@@H](CCN)C(=O)N[C@H]5CCNC(=O)[C@H]([C@@H](C)O)NC(=O)[C@H](CCN)NC(=O)[C@H](CCN)NC(=O)[C@H](CC(C)C)NC(=O)[C@@H](CC(C)C)NC(=O)[C@H](CCN)NC5=O)[C@@H](C)O)nn4)c(OC)c3)[C@H](O)[C@H](C)O2)Oc2ccc(cc2Cl)[C@H]1O,broth microdilution,ATCC 27853,cation-adjusted Mueller-Hinton broth,,,,6 µM
